Published values from different studies.
Numbered parts are unrelated; each lists some results of a single study.
UniProt Q9UKS7, sequence (whole entry, looked up): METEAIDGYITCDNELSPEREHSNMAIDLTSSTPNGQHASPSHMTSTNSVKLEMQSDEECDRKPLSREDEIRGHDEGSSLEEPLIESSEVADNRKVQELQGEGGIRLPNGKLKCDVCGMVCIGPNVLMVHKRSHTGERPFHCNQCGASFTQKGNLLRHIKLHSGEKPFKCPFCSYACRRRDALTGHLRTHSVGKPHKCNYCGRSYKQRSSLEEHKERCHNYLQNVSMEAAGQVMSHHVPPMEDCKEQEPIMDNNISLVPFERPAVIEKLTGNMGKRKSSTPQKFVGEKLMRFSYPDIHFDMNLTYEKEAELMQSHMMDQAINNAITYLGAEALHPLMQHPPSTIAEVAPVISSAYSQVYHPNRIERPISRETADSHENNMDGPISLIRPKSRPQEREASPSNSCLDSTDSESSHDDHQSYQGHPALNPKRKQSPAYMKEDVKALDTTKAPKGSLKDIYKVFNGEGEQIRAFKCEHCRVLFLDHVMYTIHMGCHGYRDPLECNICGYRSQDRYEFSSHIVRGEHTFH
UniProt Q96SW2, sequence (whole entry, looked up): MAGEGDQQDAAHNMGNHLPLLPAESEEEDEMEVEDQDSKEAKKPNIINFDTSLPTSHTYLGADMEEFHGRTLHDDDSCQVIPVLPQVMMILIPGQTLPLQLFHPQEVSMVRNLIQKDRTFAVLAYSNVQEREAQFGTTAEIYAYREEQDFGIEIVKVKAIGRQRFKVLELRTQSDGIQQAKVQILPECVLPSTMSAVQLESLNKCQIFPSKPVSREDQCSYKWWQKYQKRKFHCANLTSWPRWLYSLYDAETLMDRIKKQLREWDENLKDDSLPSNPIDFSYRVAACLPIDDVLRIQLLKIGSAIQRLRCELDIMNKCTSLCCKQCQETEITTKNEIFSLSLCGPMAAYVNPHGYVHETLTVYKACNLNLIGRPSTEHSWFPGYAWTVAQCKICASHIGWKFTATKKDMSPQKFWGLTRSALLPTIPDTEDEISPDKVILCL

Sample 1 — cell line: Huh-7; concentration: 10 µM; time: 24 h; quantity: viability
Compound = Oc1ccc(Cl)cc1; value = 85.5%
Compound = c1ccc2c(c1)sc1ccccc12; value = 100%
Compound = CC(CCc1ccccc1)NC(C)C(O)c1ccc(O)cc1 (stereo not drawn); value = 99.1%
Compound = COc1cc2c(cc1OC)[C@@]13CCN4CC5=CCO[C@H]6CC(=O)N2[C@H]1[C@H]6[C@H]5C[C@H]43; value = 101%
Compound = Cc1cccc(C)c1N=C1NCCCS1; value = 91.2%

Sample 2 — cell line: A-375; concentration: 100 µM; time: 36 h; quantity: viability
Structure (SMILES) = COC1=C[C@@H]2[C@@H]3Cc4ccc(OC)c(O)c4[C@]2(CCN3C)CC1=O; value = 92.5%
Structure (SMILES) = N#Cc1ccccc1-c1cc(-c2ccccn2)cn(-c2ccccc2)c1=O; value = 80.9%
Structure (SMILES) = CC[C@]12C=CCN3CC[C@]4(C(=C(C(=O)OC)C1)Nc1ccccc14)[C@@H]32; value = 11.2%
Structure (SMILES) = CC[C@@H](C(N)=O)N1CCCC1=O; value = 103%
Structure (SMILES) = CCOC(=O)c1cncn1[C@H](C)c1ccccc1; value = 83%

Sample 3 — read-out: ligand displacement; concentration: 10 µM; quantity: inhibition
Target: Muscarinic acetylcholine receptor M3 (CHRM3, Homo sapiens, UniProt P20309)
UniProt P20309, sequence (whole entry, looked up): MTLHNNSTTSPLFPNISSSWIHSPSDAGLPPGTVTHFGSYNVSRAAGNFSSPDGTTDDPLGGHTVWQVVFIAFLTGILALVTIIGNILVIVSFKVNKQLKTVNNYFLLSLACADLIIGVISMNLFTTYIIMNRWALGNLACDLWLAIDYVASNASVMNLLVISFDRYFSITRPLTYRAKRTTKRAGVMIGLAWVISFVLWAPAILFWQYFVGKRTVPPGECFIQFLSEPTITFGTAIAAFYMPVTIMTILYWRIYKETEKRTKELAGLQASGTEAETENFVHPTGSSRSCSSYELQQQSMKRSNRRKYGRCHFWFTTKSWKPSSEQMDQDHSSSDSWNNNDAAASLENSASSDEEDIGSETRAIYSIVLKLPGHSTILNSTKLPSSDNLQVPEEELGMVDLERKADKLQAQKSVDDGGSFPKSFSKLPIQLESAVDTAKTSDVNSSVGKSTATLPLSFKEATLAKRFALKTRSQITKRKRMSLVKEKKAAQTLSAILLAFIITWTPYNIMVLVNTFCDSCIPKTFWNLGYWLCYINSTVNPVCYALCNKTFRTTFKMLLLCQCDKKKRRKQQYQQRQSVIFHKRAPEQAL
Structure (SMILES) = O=C(NCCCC1CCCCC1)c1ccc(CNC(=O)c2cnn(-c3ccccc3)c2C(F)(F)F)cc1; value = 19.5%
Structure (SMILES) = NS(=O)(=O)c1cc(NC(=O)Cc2ccccc2)ccc1Oc1cccc(Cl)c1; value = -0.53%
Structure (SMILES) = Cc1ncc(-c2cc(Cl)ccc2F)cc1-n1c(=O)n(CC(N)=O)c2ccccc21; value = -5.28%
Structure (SMILES) = COc1ccc2cc(OCC3(C(=O)O)CN(C(=O)c4ccc(F)cc4)C3)ccc2c1; value = 19.2%
Structure (SMILES) = Cn1nc(C(=O)NCc2ccc(C(=O)O)cc2)cc1-c1ccc2[nH]ccc2c1; value = -0.66%
Structure (SMILES) = COCCOc1nc(-c2ccc(Cl)nc2)nc2c1CN(C(=O)c1ncn3ccccc13)CC2; value = 3.95%
Structure (SMILES) = CO[C@H]1CC[C@H](CNc2ccc(S(=O)(=O)NC(=O)c3ccc(N4CCN(CC5=C(c6ccc(Cl)cc6)CC(C)(C)CC5)CC4)cc3Oc3cnc4[nH]ccc4c3)cc2[N+](=O)[O-])CC1; value = 3.65%
Structure (SMILES) = C[C@@H](c1cccc(C#N)c1)n1cc(Cl)cc(C(N)=O)c1=N; value = -6.17%
Structure (SMILES) = C[C@H](c1ccnc(Nc2nc3ccc(-c4cc(N(C)C)ncn4)cc3[nH]2)c1)N1CCN(C(=O)CC(F)(F)F)CC1; value = -8.4%
Structure (SMILES) = Nc1cnc(N2CCc3cc(S(=O)(=O)Nc4c(F)cc(Cl)cc4F)cc(N4CCCC4=O)c32)nc1; value = -18%
Structure (SMILES) = CN1CCN(c2cnc3c(C4CCN(C(=O)c5ccc(OC(F)(F)F)cc5N)CC4)ncnc3c2)CC1; value = 27.1%
Structure (SMILES) = NC(=O)c1ccc2nc(-c3ccc(C4(N)CCC4)cc3)c(-c3ccccc3)n2n1; value = 20.1%
Structure (SMILES) = COc1cccc(NC(=O)c2nc3scc(CN(C)Cc4ccccc4)c3c(=O)[nH]2)c1; value = -11.2%

Further values, each from its own experiment
SMILES = CC(=O)NC1CCSC1=O (racemic); target or system = mouse MPNST tumor cells; test = high-content nuclear imaging, item: cell number; conditions = 10 µM, 12 h, mean of 2 replicates; how to read = baseline: plate mean, higher = more cells; quantity = nuclei count; value = 3.51 z-score
SMILES = CCN(CC)CCCOC(=O)C(OC(C)C)(c1ccccc1)c1ccccc1; system = mouse, microsomes or S9; conditions = 2 µM, 0.5 h; quantity = remaining compound; value = 5.9%
SMILES = COc1ccc(OC)c(C(O)C(C)N)c1 (stereo not drawn); target or system = mouse MPNST tumor cells; test = high-content nuclear imaging, item: cell number; conditions = 10 µM, 12 h, mean of 2 replicates; how to read = baseline: plate mean, higher = more cells; quantity = nuclei count; value = 0.829 z-score
SMILES = O=C1CCC(N2Cc3c(ccc4c3OCC43CCN(CC4CCCCC4)CC3)C2=O)C(=O)N1 (stereo not drawn); target or system = CRBN/Zinc finger protein Helios (Homo sapiens, UniProt Q96SW2+Q9UKS7); test = degrader, HiBiT; system = HEK293; conditions = 0.1694 nM; quantity = protein remaining; value = 105%

Some of these lines once more (sample 1):
Compound = COc1cc2c(cc1OC)[C@@]13CCN4CC5=CCO[C@H]6CC(=O)N2[C@H]1[C@H]6[C@H]5C[C@H]43; value = 101%
Compound = Cc1cccc(C)c1N=C1NCCCS1; value = 91.2%
Compound = Oc1ccc(Cl)cc1; value = 85.5%
Compound = c1ccc2c(c1)sc1ccccc12; value = 100%
